Results pooled from the literature.
Protocols differ between the studies behind these lines. ± gives the spread as reported.
Cytochrome P450 2A13: Cytochrome P450 2A13 (Homo sapiens, UniProt Q16696)
UniProt Q16696, sequence (whole entry, looked up): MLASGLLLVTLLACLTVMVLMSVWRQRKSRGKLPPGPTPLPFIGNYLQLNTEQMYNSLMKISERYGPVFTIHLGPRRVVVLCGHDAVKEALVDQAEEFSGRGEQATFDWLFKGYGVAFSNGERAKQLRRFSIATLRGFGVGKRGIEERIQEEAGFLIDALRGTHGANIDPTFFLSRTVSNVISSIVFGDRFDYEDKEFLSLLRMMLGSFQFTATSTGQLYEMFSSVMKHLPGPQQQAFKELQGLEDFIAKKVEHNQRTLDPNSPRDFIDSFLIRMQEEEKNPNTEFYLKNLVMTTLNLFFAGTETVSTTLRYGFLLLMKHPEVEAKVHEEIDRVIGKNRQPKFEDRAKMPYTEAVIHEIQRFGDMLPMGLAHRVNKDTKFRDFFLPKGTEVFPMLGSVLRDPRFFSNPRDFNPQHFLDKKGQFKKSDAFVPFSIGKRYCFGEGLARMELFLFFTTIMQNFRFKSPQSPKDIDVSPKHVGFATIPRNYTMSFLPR
gag-pol reverse transcriptase: Gag-Pol polyprotein, reverse transcriptase (gag-pol, Human immunodeficiency virus 1, UniProt P03366)
UniProt Q9Y570, sequence (whole entry, looked up): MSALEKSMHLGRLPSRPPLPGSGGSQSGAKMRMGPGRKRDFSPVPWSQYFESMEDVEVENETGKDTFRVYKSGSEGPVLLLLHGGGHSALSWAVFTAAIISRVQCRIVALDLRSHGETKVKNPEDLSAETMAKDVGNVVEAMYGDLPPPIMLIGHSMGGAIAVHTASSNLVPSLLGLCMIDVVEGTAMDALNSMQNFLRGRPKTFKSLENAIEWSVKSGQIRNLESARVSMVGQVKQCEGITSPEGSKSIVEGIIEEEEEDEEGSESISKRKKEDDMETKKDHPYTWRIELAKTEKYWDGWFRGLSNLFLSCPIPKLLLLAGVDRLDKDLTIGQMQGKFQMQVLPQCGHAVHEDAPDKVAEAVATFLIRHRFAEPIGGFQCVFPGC
UniProt P03313, sequence (whole entry, looked up): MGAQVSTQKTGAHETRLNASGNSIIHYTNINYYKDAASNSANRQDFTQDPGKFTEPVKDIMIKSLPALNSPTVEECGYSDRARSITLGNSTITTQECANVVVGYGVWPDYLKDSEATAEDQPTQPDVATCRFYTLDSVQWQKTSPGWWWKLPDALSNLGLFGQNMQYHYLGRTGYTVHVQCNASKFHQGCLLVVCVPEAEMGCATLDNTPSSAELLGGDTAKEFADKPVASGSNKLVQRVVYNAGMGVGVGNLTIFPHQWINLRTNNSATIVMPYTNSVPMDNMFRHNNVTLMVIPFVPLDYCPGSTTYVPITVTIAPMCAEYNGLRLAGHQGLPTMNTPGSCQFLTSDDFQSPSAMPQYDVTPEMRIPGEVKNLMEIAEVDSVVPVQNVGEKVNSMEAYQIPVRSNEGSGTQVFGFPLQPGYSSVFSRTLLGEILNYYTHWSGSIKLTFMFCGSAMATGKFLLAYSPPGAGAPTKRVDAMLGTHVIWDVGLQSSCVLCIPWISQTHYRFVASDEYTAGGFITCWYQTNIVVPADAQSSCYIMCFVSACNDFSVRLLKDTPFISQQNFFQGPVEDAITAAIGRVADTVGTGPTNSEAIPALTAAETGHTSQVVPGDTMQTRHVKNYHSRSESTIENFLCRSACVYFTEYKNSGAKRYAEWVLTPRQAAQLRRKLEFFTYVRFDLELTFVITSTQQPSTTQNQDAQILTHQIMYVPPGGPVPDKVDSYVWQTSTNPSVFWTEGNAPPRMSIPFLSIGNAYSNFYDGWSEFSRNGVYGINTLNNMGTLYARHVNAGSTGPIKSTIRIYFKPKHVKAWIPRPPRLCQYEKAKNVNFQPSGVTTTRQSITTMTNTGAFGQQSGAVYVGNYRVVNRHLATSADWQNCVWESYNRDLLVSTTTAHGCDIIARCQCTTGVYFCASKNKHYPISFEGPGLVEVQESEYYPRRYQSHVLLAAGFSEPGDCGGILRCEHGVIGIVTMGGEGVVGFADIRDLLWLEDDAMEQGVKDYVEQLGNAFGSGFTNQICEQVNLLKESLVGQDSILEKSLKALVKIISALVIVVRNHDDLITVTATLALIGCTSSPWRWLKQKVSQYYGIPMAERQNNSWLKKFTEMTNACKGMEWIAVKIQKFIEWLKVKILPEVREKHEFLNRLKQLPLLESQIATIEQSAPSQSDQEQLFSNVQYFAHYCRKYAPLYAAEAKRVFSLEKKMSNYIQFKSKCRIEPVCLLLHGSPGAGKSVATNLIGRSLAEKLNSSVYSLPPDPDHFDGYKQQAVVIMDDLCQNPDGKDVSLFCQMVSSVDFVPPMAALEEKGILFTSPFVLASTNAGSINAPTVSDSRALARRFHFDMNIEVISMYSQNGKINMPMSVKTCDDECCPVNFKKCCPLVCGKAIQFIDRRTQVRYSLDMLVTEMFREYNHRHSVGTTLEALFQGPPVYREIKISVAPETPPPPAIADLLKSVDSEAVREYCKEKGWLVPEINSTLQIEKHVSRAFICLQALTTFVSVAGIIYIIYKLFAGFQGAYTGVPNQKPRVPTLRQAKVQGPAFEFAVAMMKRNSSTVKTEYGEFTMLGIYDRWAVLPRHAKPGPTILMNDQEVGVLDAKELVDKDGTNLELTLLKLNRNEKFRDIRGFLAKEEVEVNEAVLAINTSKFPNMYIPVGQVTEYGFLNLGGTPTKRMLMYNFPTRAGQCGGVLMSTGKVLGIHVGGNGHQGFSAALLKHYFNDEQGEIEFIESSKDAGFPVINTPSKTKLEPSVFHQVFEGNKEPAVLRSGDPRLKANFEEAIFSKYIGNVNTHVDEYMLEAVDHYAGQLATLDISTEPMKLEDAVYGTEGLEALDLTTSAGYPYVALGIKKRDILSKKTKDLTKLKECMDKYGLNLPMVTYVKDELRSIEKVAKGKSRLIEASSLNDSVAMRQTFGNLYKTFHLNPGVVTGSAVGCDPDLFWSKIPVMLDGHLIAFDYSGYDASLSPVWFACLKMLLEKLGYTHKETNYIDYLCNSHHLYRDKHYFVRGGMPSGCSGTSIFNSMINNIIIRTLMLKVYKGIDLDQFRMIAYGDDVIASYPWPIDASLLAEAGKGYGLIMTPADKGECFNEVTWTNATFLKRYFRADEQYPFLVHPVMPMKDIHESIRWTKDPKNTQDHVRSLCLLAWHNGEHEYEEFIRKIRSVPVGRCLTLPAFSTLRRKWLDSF
UniProt O95147, sequence (whole entry, looked up): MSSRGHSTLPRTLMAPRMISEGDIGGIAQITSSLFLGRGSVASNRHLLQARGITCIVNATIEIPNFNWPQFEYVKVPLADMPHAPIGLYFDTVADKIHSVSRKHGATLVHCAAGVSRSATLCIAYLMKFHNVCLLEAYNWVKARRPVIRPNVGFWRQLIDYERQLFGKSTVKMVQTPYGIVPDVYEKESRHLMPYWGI
UniProt P21728, sequence (whole entry, looked up): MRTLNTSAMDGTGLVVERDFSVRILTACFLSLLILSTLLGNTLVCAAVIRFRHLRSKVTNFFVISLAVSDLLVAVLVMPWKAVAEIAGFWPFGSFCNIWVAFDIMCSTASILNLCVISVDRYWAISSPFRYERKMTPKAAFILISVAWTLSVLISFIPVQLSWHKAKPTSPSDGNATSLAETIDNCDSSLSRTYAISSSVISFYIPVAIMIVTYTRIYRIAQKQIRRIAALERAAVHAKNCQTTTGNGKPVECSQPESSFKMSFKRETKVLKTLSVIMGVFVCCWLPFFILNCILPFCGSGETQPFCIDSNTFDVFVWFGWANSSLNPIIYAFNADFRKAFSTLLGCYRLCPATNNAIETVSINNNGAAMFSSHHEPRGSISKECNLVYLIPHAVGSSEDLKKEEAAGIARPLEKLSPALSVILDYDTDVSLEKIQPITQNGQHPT
UniProt P15207, sequence (whole entry, looked up): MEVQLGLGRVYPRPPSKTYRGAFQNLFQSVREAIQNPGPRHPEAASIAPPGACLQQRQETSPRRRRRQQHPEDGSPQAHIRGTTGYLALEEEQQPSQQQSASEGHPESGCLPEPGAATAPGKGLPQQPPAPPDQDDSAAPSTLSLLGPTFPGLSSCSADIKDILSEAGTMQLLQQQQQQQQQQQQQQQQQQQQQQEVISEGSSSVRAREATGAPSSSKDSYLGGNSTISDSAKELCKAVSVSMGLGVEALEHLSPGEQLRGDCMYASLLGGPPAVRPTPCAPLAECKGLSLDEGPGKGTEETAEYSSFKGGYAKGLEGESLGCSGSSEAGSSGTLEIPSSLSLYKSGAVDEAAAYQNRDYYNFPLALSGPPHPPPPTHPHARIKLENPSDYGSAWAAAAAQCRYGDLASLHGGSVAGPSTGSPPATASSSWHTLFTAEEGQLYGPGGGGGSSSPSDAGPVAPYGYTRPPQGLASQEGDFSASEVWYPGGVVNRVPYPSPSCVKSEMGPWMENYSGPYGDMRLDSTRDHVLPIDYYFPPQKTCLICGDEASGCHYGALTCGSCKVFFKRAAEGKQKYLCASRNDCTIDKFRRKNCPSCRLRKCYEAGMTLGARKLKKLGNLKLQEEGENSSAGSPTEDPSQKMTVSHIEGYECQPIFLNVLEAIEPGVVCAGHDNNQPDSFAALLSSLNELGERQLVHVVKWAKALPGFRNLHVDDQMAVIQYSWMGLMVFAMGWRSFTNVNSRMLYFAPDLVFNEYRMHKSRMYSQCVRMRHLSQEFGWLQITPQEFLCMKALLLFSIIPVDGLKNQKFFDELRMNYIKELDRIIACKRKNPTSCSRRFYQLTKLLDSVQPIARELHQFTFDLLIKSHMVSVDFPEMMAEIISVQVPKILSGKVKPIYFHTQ
UniProt Q9NZQ7, sequence (whole entry, looked up): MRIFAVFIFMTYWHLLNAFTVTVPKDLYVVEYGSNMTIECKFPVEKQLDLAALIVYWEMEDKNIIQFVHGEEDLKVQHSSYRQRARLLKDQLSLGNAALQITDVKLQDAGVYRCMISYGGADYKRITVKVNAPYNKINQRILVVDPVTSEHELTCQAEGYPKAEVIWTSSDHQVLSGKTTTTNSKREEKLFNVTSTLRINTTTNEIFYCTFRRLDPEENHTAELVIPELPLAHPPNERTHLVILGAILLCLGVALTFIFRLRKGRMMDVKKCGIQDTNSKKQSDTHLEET

COC(=O)N1C(=O)[C@](c2ccccc2)(C2CCCC2)N1C(=O)OC
IC50 (Protein phosphatase methylesterase 1 (Homo sapiens, UniProt Q9Y570); enzyme activity, inhibitor; together with: FP-biotin 1 µM): 0.0122 µM

CCOC(=O)O[C@]1(C(=O)COC(=O)CC)CC[C@H]2[C@@H]3CCC4=CC(=O)C=C[C@]4(C)[C@H]3[C@@H](O)C[C@@]21C
IC50 (Androgen receptor (Ar, Rattus norvegicus, UniProt P15207); inhibitor): 0.71 µM

COc1ncccc1-c1cnn2ccc(N3CCN(C(=O)OC(C)C)CC3)nc12
IC50 (D(1A) dopamine receptor (DRD1, Homo sapiens, UniProt P21728); liability screen): > 30 µM

NC(=NCc1ccccc1)NC(=O)c1nc(Cl)c(N2CCCCCC2)nc1N
IC50 (Genome polyprotein, 3D RNA polymerase (Coxsackievirus B3, UniProt P03313); RNA polymerase activity, inhibitor, single AMP incorporation; no Mg2+ preincubation): 22 ± 4 µM

O=C(O)C(=Cc1ccccc1)CC(P(=O)(O)O)P(=O)(O)O
IC50 (polyphosphate kinase 2 (Cytophaga hutchinsonii, UniProt A0A6N4SMB5); enzyme activity, inhibitor, HPLC; 30 min, 37 °C, together with: 0.04 mM ADP and 0.3 mM polyP): 85 µM

COc1cc(Nc2ncc(F)c(Nc3ccc4c(n3)NC(=O)C(C)(C)O4)n2)cc(OC)c1OC
IC50 (Dual specificity protein phosphatase 14 (DUSP14, Homo sapiens, UniProt O95147); MKP-6): > 10 µM

CSCC[C@H](NC(=O)[C@@H](NC(=O)[C@H](Cc1c[nH]c2ccccc12)NC(=O)[C@H](Cc1ccc(O)cc1)NC(=O)CNC(C)=O)C(C)C)C(=O)N[C@@H](Cc1ccccc1)C(=O)N[C@@H](Cc1ccc(O)cc1)C(N)=O
IC50 (Programmed cell death 1 ligand 1, with PD-1 (CD274, Homo sapiens, UniProt Q9NZQ7); PD-1/PD-L1 binding, ELISA; together with: biotinylated human PD-1): 5.99 µM

CC[C@H](C)[C@H](NC(=O)[C@H](CCCNC(=N)N)NC(=O)[C@H](CC(C)C)NC(=O)[C@@H](NC(=O)[C@H](CCC(N)=O)NC(=O)[C@H](CCCCN)NC(=O)[C@@H](NC(=O)[C@H](CC(=O)O)NC(=O)[C@@H](N)CCCCN)[C@@H](C)O)[C@@H](C)CC)C(=O)O
IC50 (Uncharacterized protein (Equus caballus, UniProt Q38RB9); peptide binding, competitor, competitive radioligand binding; purified horse MHC class I; pH 7): 0.077 µM

CC#Cc1ccc2ccc3ccccc3c2c1
IC50 (Cytochrome P450 2A13; enzyme activity, inhibitor; 20 min, pH 7.4): > 100 µM

O=C1CSC(c2ccc(F)cc2)N1c1nc(-c2ccc(S(=O)(=O)N3CCCC3)cc2)cs1 (stereo not shown)
IC50 (gag-pol reverse transcriptase): > 4 µM

CO[C@]1([C@@H]2CSC(=O)N2C)C[C@H]2C[C@@H](CC[C@H](C)/C=C\C=C\CC/C(C)=C\C(=O)O2)O1
IC50 (Actin, alpha skeletal muscle, pyrene-labeled (ACTA1, Oryctolagus cuniculus, UniProt P68135); actin polymerization, pyrene actin): > 10 µM

O=C1CSC(c2ccc(Br)cc2)N1c1cccc(S(=O)(=O)Nc2nccs2)c1 (stereo not shown)
IC50 (gag-pol reverse transcriptase): > 4 µM

c1ccc2c(c1)ccc1ccc3ccccc3c12
IC50 (Cytochrome P450 2A13; enzyme activity, inhibitor; 20 min, pH 7.4): > 100 µM

Excerpt of the above:
COC(=O)N1C(=O)[C@](c2ccccc2)(C2CCCC2)N1C(=O)OC
IC50 (Protein phosphatase methylesterase 1 (Homo sapiens, UniProt Q9Y570); enzyme activity, inhibitor; together with: FP-biotin 1 µM): 0.0122 µM
